Published values collected from several papers.
Lines come from different studies, so protocols differ.

`CN1CCN(C2=Nc3cc(Cl)ccc3Nc3ccccc32)CC1` has a fraction unbound of 0.0525 (rapid equilibrium dialysis; human, 10% plasma; 2 µM, 24 h, pH 7.4).
The fraction unbound of `CCc1cc2c(cc1CC)CC(NC[C@H](O)c1ccc(O)c3[nH]c(=O)ccc13)C2` is reported as 0.051 (equilibrium dialysis; human, plasma).
Under “fraction excreted in urine”, `CN[C@@H]1COc2c(S(=O)(=O)NC(=O)Nc3c4c(cc5c3CCC5)CCC4)cnn2C1` is recorded as 0.123 (human, urine; oral, 900 mg twice daily, 0-12 h, day 7).
With `CC(C)n1nccc1-c1ncccc1COc1cccc(O)c1C=O` the fraction absorbed was 100% (estimated from MDCK Papp; MDCK knock-out, human; 1 µM, 90 min).
`C[C@H]1CN(C2COC2)CCN1c1ccc(Nc2cc(-c3ccnc(N4CCn5c(cc6c5CC(C)(C)C6)C4=O)c3CO)cn(C)c2=O)nc1` has a fraction unbound of 0.2 (human, plasma).
Under “fraction excreted in urine”, `NC[C@@]1(CC(=O)O)[C@@H]2CC[C@H]3C[C@@H]2[C@@H]1C3` is recorded as 70.7% (human, moderate renal impairment, urine; oral, 20 mg single dose, 0-72 h).
Under “fraction of dose excreted”, `C=CC(=O)Nc1cc(Nc2ncc(C(=O)OC(C)C)c(-c3cn(C)c4ccccc34)n2)c(OC)cc1N(C)CCN(C)C` is recorded as 0.69% (healthy human, urine; oral, 120 mg single dose, arithmetic mean).
`CNC(=O)c1cc(Cl)c(OC(C)(C)C(=O)O)cc1OC[C@@H](O)CN1CCC2(CC1)Cc1cc(Cl)ccc1O2` gave a fraction unbound of 0.4 (equilibrium dialysis; human, plasma).
Under “fraction excreted in urine”, `Cl.O=C(NC1CCOCC1)c1csc([C@@H]2C[C@H]2NCC2CC2)c1` is recorded as 19.6% (human, fed, urine; oral, 30 mg single dose).
Under “fraction excreted unchanged in urine”, `Cn1cc(-c2cn3nccc3c(-c3cnn([C@]4(CC#N)C[C@@H](C#N)C4)c3)n2)cn1` is recorded as 0.8% (human, urine; oral, 400 mg once daily, day 10, dosing interval geometric mean).
With `CC(C)(C)NCC(O)c1cc(O)cc(O)c1` (stereo not drawn) the fraction unbound was 0.66 (equilibrium dialysis; human, plasma).
Under “fraction excreted in urine (0-8 h)”, `NCCONC(=O)[C@@H]1CC[C@@H]2CN1C(=O)N2OS(=O)(=O)O` is recorded as 81.1% (human male, urine; intravenous infusion, 2 g multiple doses, day 9).
Under “fraction excreted in urine (0-24 h)”, `CC(C)(Sc1ccncc1-c1ccc(C#N)c2ccccc12)C(=O)O` is recorded as 1.21% (human, urine; oral, 5 mg, added: febuxostat 10 mg).
For `CNC(=O)c1ccc(-c2cnc3ncc(Cc4ccc5ncccc5c4)n3n2)cc1F`, the fraction unbound was 0.0425 (ultrafiltration; human severe hepatic function, plasma; oral, 200 mg, 3 h post-dose, mean).
For `Cl.[2H]C([2H])([2H])CC(=O)c1cnc(NC(=O)C2CC2)cc1Nc1cccc(-c2ncn(C([2H])([2H])[2H])n2)c1OC`, “fraction excreted unchanged” read 0.37% (human, urine; oral, 40 mg twice daily, fasted, multiple doses, mean).
`Cc1cc(-c2nccc3c2ccn3CC(=O)Nc2ccc(-c3cnccn3)cn2)ccn1` — result for “fraction excreted in urine (fe)”: 2.27% (human, urine; oral, 15 mg once daily, day 16, geometric mean).
`COc1cc(C(=O)NC2CCN(C)CC2)c(F)cc1Nc1ncc(C(F)(F)F)c(Oc2cccc3c2C(=O)N(C)C3)n1`: “fraction excreted in urine” 5.52% (healthy Taiwanese humans, urine; oral, 200 mg single dose, 0-24 h, geometric mean).
`CC(=O)Nc1ccc(O)cc1` has a fraction absorbed of 100% (estimated from MDCK Papp; MDCK knock-out, human; 1 µM, 90 min).
`COc1ccc(F)cc1C(=O)NCc1ccc(-c2nn([C@@H](C)C(F)(F)F)c(N)c2C(N)=O)cc1` gave a fraction absorbed of 0.91 (human; oral, 200 mg, tablet).
`CC(C)n1c(C2CCNCC2)nc2c([N+](=O)[O-])c(Br)c(Br)cc21` — result for “fraction excreted in urine”: 0.01 (human, urine; oral, 125 mg, median, single dose).
Under “fraction absorbed via transit compartment”, `CCN1CCN(Cc2ccc(Nc3ncc(F)c(-c4cc(F)c5nc(C)n(C(C)C)c5c4)n3)nc2)CC1` is recorded as 0.493 (population PK model; human, plasma; oral).
For `C[C@@H](N)c1cc(Cl)ccc1Cn1c(=S)[nH]c(=O)c2[nH]ccc21`, “fraction excreted unchanged” read 55.1% (human matched controls, urine; oral, 2.5 mg single dose, 0-24 h; relative to: dose).
Under “fraction excreted in urine 0-72 h”, `O=C(c1nc2n(n1)[C@H](c1ccccc1)C[C@@H]2F)C1CC1` is recorded as 0.22% (human; 225 mg single dose, mean).
`CC(=O)N[C@@H](CS)C(=O)O` has a fraction unbound of 2.1% (human, plasma).
For `CC(C)OC(=O)[C@@H](C)N[P@@](=O)(OC[C@H]1O[C@@H](n2ccc(=O)[nH]c2=O)[C@](C)(Cl)[C@@H]1O)Oc1ccccc1`, “fraction of dose absorbed via route 1” read 91% (human; oral, dose not given, capsule).
`C[C@@H](Oc1ccc(S(C)(=O)=O)cc1C(=O)N1C[C@@H]2C[C@]2(c2cc(C(F)(F)F)on2)C1)C(F)(F)F` — result for “fraction excreted in urine”: 1.85% (young healthy humans, urine; oral, 25 mg, 0 to 24 h, single dose).
`CC(=O)N(C)[C@H]1CCN(C(=O)c2cnc3c(c2)C[C@](C)(c2ccc(F)cc2)N3)C1` — result for “fraction excreted in urine”: 50.9% (healthy male human, urine; oral, 15 mg once daily, 0-48 h steady state, geometric mean).

A few entries again:
With `CC(C)(C)NCC(O)c1cc(O)cc(O)c1` (stereo not drawn) the fraction unbound was 0.66 (equilibrium dialysis; human, plasma).
The fraction unbound of `CCc1cc2c(cc1CC)CC(NC[C@H](O)c1ccc(O)c3[nH]c(=O)ccc13)C2` is reported as 0.051 (equilibrium dialysis; human, plasma).
`CNC(=O)c1cc(Cl)c(OC(C)(C)C(=O)O)cc1OC[C@@H](O)CN1CCC2(CC1)Cc1cc(Cl)ccc1O2` gave a fraction unbound of 0.4 (equilibrium dialysis; human, plasma).
